# Results gathered from unrelated publications.
# Parts stem from different laboratories: compare values within a part only. Substitutions count along the parent as printed.

# Series 1 — technique: protein binding microarray; form: double-stranded DNA, one strand shown; sample: in vitro; concentration: not given; baseline: not given; direction: higher = stronger binding
# Target: Histone acetyltransferase KAT6A, winged helix 2, GST fusion (KAT6A, Homo sapiens, UniProt Q92794, residues 85-181)
# Setting: 8-mer, flanks averaged, mean of 2 arrays, mostly near background
# Target sequence (chain): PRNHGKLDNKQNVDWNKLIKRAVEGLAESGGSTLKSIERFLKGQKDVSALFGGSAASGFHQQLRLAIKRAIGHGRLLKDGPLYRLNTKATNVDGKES
Sequence,E-score
GACCGCTC,0.0411
CAGTCGCA,-0.0051
AGCATCAG,-0.0137
AAGGTAAT,0.0297
GGTCCTAA,-0.0409
ATAAAATA,0.0446
CAAGTCAG,0.0043
ACGGGCTG,0.0336
GAAAAGTC,-0.152
CAACGTGG,0.044
GGGGGTTA,-0.288
GAGCTGAC,0.15
GGTTATTA,-0.197
AGAGCGCG,0.0253
AATTTATG,0.0445
GCATCATA,0.105
GCATCGGA,0.106
AATGTAAA,-0.0278
CGTTGAAC,-0.0716
GAAGGCAA,0.234
GCGCAGAA,0.145
CACGCCCC,0.197
ACCGATTC,-0.136
CCGAAAAA,0.166
CTCTACAG,-0.049

# Series 2 — technique: aptamer microarray, sandwich; form: DNA with 2'F-ANA; sample: in vitro; concentration: 200 nM; with: Cy3 exosite-II aptamer, 400 nM; direction: higher = stronger binding; sequence: GGTTGGTGTGGTTGG
# Target: Prothrombin, mature alpha-thrombin (F2, Homo sapiens, UniProt P00734)
# Setting: whole 15-mer aptamer, many near background
Modification,mean fluorescence intensity [a.u.]
2'F-ANA at 1 2 6 8 12 13 14,63.9
2'F-ANA at 1 7 8 9 10 12 14 15,67.2
2'F-ANA at 2 3 5 6 10 11 12 13 14,55.3
2'F-ANA at 1 2 4 6 8 9 11 12 13 14,52.3
2'F-ANA at 1 2 3 4 8 10 14 15,57.9
2'F-ANA at 1 2 5 9 10 11 13,50.1
2'F-ANA at 1 3 4 7 11,192
2'F-ANA at 12 13,747
2'F-ANA at 1 2 3 4 8 10 13,53.1
2'F-ANA at 7 10 11 12 13 15,173
2'F-ANA at 9 11 12 14,230
2'F-ANA at 2 3 4 5 6 8 11 13,67.7
2'F-ANA at 3 4 12 13 14 15,324
2'F-ANA at 3 5 8 11,122
2'F-ANA at 5 6 7 8 9 10,50.1
2'F-ANA at 3 4 5 7 9 10 15,54.7
2'F-ANA at 1 3 4 6 7 8 10 14,55.7
2'F-ANA at 3 5 6 8 9 12 13 15,151
2'F-ANA at 1 3 4 8 10 11 12 13 14 15,105
2'F-ANA at 2 3 4 5 6 8 11 12 14,55.1

# Series 3 — target: ATF1, bZIP domain (human); technique: DHFR protein complementation; sample: yeast; baseline: wild-type JUN-FOS pair; direction: higher = stronger binding
# Setting: single substitutions, most at no-binding floor
# Parent: JUN, bZIP domain (human); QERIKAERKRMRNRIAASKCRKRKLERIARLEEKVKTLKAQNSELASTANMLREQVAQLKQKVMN; partner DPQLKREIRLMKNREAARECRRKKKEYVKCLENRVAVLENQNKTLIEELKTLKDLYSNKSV
Variant,binding fitness [natural log]
I28Y,-1.41
A40R,-1.44
L52Q,-1.53
V35R,-1.56
R53F,-1.6
R30E,-1.42
L45C,-1.49
A57R,-1.51
E44I,-1.48
L52C,-1.57
Q55V,-1.49
A29P,-1.5
A29K,-1.42
Q41M,-1.48
I28H,-1.63
K34P,-1.55
V56A,-1.5
V35D,-1.61
L52W,-1.55
V56Q,-1.58
R30Q,-1.53
L59P,-1.49
K36M,-1.3
S43H,-1.57

# Series 4 — target: CCNA2, cyclin fold, Cln2 fusion (human); technique: yeast growth competition, sequencing; sample: yeast; setting: strong parent motif; baseline: not given; direction: higher = stronger binding
# Parent: RRM2 docking peptide (human); SKTARRIFQEPTE
Variant,normalised enrichment score
SKTAARIFQEPTE [R5A],0.351
SKTARRIFAEPTE [Q9A],0.96
SKTARRAFQEPTE [I7A],-0.0633
SKTARRIFQAPTE [E10A],0.622
SATARRIFQEPTE [K2A],0.197
SKTARRIAQEPTE [F8A],0.342

# For quick reference, copied from above (series 2):
Modification,mean fluorescence intensity [a.u.]
2'F-ANA at 1 2 4 6 8 9 11 12 13 14,52.3
2'F-ANA at 1 2 3 4 8 10 14 15,57.9
2'F-ANA at 1 2 5 9 10 11 13,50.1
2'F-ANA at 1 3 4 7 11,192
